Experimental data collected from several papers.
Several values in a cell are separate wells, animals, samples, runs or records.
Target: C-X-C chemokine receptor type 4 (CXCR4, Homo sapiens, UniProt P61073)

N=C(N)NCCC[C@H](NC(=O)[C@@H]1CSSC[C@H](NC(=O)[C@H](Cc2ccc3ccccc3c2)NC(=O)[C@H](CCCNC(=N)N)NC(=O)[C@H](CCCNC(=N)N)NC(=O)CN2CCN(CC(=O)O)CCN(CC(=O)O)CCN(CC(=O)O)CC2)C(=O)N[C@@H](Cc2ccc(O)cc2)C(=O)N[C@@H](CCCNC(N)=O)C(=O)N[C@@H](CCCCN)C(=O)N[C@H](CCCCN)C(=O)N2CCC[C@H]2C(=O)N[C@@H](Cc2ccc(O)cc2)C(=O)N[C@@H](CCCNC(=N)N)C(=O)N[C@@H](CCCNC(N)=O)C(=O)N1)C(N)=O — IC50 (ligand displacement in cells, radioligand): 68 nM
c1ccc(C2=Nn3c(nnc3-c3ccccc3)SC2)cc1 — EC50 (β-arrestin recruitment, agonist): > 80000 nM
CC(=O)[O][Cu+].c1ccc(CN2CCN3CCN(CC2)CCN(Cc2ccccc2)CC3)cc1 — IC50 (calcium signal, antagonist, fluorescence): 232 nM
CN(C)c1nccc(CN(C)S(=O)(=O)Cc2cccc3cccnc23)n1 — IC50 (β-arrestin recruitment): ~10000 nM
CCOc1ccccc1-c1nnc2n1N=C(c1ccc(N3CCCC3)cc1)CS2 — EC50 (cAMP, agonist): 50 nM
CCc1noc(CN(C)Cc2cn(-c3ccccc3)nc2-c2ccc(Cl)cc2)n1 — IC50 (β-arrestin recruitment): ~16000 nM
CCOc1ccccc1-c1nnc2n1N=C(c1ccc(NC(C)=O)cc1)CS2 — EC50 (β-arrestin recruitment, agonist): > 10000 nM
CC(=O)[O][Cu+].CN1CCCN2CCN(CCCN(Cc3ccccc3)CC2)CC1 — IC50 (ligand displacement, flow cytometry): ~10 nM and 12.4 nM
N=C(N)NCCC[C@@H]1NC(=O)[C@@H]2CSSC[C@H](NC(=O)[C@H](Cc3ccc4ccccc4c3)NC(=O)[C@H](CCCNC(=N)N)NC(=O)[C@H](CCCNC(=N)N)NC(=O)[C@H]3CCCN3C(=O)CNC1=O)C(=O)N[C@@H](Cc1ccc(O)cc1)C(=O)N[C@@H](CCC(N)=O)C(=O)N[C@@H](CCCCN)C(=O)N1CCC[C@@H]1C(=O)N1CCC[C@H]1C(=O)N[C@@H](Cc1ccc(O)cc1)C(=O)N[C@@H](CCCNC(=N)N)C(=O)N[C@@H](CCCNC(N)=O)C(=O)N2 — IC50: 0.087 nM
CCc1noc(CN(CCN(Cc2nc(CC)no2)c2ccccc2)c2ccccc2)n1 — IC50 (β-arrestin recruitment): ~2000 nM
CC(=O)[O][Cu+].CN1CCN2CCN(CC1)CCN(Cc1ccccc1)CC2 — IC50 (calcium signal, antagonist, fluorescence): 204 nM

Some of these lines once more:
CC(=O)[O][Cu+].CN1CCCN2CCN(CCCN(Cc3ccccc3)CC2)CC1 — IC50 (ligand displacement, flow cytometry): ~10 nM and 12.4 nM
